Measurements pooled from the literature.
Numbered parts are unrelated; each lists some results of a single study.
UniProt P10398, sequence (whole entry, looked up): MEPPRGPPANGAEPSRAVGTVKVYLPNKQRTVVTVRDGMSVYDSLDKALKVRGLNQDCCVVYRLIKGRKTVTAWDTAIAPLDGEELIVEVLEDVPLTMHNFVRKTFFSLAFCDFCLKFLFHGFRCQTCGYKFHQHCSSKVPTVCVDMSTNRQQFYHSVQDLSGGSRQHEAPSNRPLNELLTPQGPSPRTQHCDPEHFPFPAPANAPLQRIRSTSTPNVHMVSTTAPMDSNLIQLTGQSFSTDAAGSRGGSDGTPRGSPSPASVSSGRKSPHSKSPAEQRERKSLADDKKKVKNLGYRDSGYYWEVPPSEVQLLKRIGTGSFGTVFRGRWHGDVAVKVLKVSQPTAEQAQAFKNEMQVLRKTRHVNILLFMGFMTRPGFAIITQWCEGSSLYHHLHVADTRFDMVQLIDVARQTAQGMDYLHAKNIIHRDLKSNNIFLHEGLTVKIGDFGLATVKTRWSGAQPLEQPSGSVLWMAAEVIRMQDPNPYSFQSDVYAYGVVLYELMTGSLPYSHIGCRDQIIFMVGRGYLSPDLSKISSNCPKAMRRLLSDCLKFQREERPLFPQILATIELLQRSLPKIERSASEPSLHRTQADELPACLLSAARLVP
UniProt P45983, sequence (whole entry, looked up): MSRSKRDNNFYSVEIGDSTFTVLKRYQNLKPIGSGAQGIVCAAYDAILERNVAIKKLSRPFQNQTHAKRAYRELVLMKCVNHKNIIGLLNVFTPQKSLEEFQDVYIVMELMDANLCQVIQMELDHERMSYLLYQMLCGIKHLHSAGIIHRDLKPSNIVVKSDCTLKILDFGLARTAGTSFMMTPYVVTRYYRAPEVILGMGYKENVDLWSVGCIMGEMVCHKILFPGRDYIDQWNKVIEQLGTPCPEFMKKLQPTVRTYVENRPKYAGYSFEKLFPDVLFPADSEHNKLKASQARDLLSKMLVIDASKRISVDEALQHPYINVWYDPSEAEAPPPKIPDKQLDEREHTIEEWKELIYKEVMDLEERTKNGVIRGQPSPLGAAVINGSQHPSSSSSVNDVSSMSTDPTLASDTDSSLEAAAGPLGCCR
UniProt P29320, sequence (whole entry, looked up): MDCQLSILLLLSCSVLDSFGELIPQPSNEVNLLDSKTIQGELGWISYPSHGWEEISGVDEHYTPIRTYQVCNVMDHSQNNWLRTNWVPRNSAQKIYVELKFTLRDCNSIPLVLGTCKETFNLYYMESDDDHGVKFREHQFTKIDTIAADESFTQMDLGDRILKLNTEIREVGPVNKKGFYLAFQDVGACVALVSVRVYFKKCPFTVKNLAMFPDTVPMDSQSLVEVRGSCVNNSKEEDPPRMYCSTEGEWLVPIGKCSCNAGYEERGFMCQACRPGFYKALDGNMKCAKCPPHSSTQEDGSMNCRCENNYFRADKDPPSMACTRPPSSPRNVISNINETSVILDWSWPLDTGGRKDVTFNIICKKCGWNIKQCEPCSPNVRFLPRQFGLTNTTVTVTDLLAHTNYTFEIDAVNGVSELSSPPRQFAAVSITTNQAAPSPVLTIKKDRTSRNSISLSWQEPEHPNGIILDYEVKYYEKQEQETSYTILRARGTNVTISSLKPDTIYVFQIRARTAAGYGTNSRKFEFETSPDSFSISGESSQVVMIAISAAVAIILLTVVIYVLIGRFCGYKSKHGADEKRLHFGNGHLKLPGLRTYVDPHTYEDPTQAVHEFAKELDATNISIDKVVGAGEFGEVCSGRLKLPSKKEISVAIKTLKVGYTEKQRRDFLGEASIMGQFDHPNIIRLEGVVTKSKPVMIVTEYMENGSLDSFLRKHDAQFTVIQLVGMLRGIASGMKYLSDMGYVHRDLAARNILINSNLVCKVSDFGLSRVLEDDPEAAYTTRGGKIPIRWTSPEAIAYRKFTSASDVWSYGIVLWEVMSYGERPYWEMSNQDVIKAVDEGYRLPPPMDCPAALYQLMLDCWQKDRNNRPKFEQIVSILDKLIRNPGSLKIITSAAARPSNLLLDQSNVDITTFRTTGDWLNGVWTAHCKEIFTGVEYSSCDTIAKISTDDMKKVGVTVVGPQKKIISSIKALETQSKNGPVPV
UniProt Q99558, sequence (whole entry, looked up): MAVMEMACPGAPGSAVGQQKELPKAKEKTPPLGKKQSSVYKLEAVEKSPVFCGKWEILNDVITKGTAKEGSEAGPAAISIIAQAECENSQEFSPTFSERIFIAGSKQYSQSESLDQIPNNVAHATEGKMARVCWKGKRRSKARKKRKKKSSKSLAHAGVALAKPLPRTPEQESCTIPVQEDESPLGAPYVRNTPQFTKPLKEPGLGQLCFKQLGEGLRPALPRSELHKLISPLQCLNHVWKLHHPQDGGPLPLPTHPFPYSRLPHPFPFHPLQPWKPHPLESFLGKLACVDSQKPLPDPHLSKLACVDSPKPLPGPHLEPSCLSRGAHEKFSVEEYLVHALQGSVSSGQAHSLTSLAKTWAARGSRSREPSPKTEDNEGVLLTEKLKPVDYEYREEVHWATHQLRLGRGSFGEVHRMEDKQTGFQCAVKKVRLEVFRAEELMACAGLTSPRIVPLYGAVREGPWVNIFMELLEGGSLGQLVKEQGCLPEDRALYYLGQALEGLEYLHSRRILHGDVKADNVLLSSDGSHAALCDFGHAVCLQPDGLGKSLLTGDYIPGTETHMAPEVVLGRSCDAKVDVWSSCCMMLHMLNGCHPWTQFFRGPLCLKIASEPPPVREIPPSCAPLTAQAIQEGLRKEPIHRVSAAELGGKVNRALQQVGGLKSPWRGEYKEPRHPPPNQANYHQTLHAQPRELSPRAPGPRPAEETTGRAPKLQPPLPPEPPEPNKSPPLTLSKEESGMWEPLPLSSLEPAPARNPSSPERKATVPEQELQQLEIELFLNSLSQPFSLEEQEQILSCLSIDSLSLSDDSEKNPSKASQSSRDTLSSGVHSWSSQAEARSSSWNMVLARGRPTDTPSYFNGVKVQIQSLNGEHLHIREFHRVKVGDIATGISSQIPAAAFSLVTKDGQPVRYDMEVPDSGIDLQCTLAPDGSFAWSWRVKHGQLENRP
UniProt Q16288, sequence (whole entry, looked up): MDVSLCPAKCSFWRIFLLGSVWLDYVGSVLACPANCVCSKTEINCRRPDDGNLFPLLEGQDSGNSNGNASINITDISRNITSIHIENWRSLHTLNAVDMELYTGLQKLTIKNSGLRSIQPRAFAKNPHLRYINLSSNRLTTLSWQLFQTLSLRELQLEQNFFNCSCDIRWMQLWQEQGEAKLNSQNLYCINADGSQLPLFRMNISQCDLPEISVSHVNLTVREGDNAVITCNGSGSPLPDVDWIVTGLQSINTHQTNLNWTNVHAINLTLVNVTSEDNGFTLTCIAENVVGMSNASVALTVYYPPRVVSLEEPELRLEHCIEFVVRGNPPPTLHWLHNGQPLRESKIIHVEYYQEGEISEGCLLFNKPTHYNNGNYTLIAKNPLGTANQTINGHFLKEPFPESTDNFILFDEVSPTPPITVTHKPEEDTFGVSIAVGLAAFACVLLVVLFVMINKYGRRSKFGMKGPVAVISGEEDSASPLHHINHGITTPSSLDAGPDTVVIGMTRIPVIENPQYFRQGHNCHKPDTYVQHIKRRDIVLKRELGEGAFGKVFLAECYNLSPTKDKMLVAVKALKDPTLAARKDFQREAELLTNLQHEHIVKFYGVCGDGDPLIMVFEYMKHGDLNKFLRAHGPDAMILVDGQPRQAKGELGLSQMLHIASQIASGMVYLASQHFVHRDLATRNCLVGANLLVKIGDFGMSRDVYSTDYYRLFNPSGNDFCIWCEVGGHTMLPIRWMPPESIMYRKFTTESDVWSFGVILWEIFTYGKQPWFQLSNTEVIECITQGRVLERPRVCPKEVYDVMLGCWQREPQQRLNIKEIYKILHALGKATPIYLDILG
UniProt P42684, sequence (whole entry, looked up): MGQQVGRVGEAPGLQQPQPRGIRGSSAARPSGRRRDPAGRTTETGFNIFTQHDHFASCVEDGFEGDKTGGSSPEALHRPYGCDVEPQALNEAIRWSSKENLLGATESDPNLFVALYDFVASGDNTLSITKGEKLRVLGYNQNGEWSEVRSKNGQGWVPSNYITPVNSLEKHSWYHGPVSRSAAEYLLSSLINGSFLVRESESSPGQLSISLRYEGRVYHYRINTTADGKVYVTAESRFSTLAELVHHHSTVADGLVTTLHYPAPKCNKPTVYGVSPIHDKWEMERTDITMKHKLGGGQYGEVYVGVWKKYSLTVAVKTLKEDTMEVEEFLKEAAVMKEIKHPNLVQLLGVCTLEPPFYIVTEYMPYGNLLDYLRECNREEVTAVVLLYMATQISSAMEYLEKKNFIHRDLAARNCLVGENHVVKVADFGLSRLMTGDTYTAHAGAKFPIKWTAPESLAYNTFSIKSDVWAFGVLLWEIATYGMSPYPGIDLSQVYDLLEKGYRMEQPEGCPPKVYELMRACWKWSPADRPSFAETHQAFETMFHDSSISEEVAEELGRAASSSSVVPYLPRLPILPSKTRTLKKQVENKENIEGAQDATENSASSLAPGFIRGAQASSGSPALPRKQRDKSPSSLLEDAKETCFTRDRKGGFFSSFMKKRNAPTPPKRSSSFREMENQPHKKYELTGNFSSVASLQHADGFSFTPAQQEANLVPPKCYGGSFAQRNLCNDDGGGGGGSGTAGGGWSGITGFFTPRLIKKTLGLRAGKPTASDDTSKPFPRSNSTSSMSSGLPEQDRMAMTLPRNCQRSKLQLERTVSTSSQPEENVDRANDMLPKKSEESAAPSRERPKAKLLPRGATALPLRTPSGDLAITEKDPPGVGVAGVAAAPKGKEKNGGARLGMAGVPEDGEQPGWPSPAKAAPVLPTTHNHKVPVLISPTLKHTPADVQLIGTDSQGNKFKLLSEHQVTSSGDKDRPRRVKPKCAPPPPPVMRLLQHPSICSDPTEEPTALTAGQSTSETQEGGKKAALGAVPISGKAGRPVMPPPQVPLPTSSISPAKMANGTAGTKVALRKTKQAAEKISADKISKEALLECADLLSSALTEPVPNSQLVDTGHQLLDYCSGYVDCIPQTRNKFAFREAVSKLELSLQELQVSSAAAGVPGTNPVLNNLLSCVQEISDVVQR

Study 1
SMILES: Cc1ccc(NC2=CC(=O)c3sc(C)nc3C2=O)cc1
Read-out: enzyme activity
Action: inhibitor
Concentration: 0.5 µM
Reference: control
The remaining activity was 98.3% (Tyrosine-protein kinase ABL2 (ABL2, Homo sapiens, UniProt P42684)).
Mitogen-activated protein kinase kinase kinase 5 (MAP3K5, Homo sapiens, UniProt Q99683) — remaining activity: 119%.
It gave 96.6% for remaining activity (Ephrin type-A receptor 3 (EPHA3, Homo sapiens, UniProt P29320)).
It gave 85.3% for remaining activity (Fibroblast growth factor receptor 1 (FGFR1, Homo sapiens, UniProt P11362)).
Serine/threonine-protein kinase A-Raf (ARAF, Homo sapiens, UniProt P10398) — remaining activity: 127%.
It gave 95.9% for remaining activity (Angiopoietin-1 receptor (TEK, Homo sapiens, UniProt Q02763)).
For Macrophage-stimulating protein receptor (MST1R, Homo sapiens, UniProt Q04912): remaining activity read 88.9%.
For Dual specificity mitogen-activated protein kinase kinase 2 (MAP2K2, Homo sapiens, UniProt P36507): remaining activity read 98.8%.
For Casein kinase I isoform gamma-3 (CSNK1G3, Homo sapiens, UniProt Q9Y6M4): remaining activity read 90.1%.
For Mitogen-activated protein kinase kinase kinase 14 (MAP3K14, Homo sapiens, UniProt Q99558): remaining activity read 98.2%.
The remaining activity was 96.6% (Serine/threonine-protein kinase TAO2 (TAOK2, Homo sapiens, UniProt Q9UL54)).
The remaining activity was 97.6% (MAP kinase-activated protein kinase 2 (MAPKAPK2, Homo sapiens, UniProt P49137)).
For Serine/threonine-protein kinase TBK1 (TBK1, Homo sapiens, UniProt Q9UHD2): remaining activity read 94%.

Study 2
Target: RING finger protein unkempt homolog, zinc fingers 1-6, GST-SBP tag (UNK, Homo sapiens, UniProt Q9C0B0, residues 30-357)
Method: RNA Bind-n-Seq
Form: RNA
Sample: in vitro
Concentration: not given
Notes: RNA with constant flanks, human-mouse chimeric sites, ends assumed
Reference: input RNA pool
Reading: higher = stronger binding
Residues (chain): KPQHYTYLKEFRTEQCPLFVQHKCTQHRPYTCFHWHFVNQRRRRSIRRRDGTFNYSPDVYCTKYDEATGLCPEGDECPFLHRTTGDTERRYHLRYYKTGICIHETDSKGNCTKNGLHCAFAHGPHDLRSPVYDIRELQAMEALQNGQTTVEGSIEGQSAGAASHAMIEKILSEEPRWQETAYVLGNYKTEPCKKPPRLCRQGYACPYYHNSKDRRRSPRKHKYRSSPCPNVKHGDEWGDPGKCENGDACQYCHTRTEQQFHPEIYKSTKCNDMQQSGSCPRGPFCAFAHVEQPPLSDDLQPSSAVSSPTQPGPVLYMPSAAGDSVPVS
`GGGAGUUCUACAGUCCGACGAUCGGCCUGGGACCGUCCUGGGCUAGUACAAAUAGCGGCAGUGGAGGCUCGAGAGGAAAGUUUGUUAGUGGAGGCAGUGGAGAGGUCGUCAUGUACGCUCCCUUUACUCGAUAGAUGUGUUCUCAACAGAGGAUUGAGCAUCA` has a bound/input enrichment of 0.427 ratio.
`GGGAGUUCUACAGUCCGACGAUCCGCCUGGAUGAGGCGGGUGUCACAGAUGAAGUGCUAGAUUCUGCCAUGCAAGCCUUCUUACUAGAAAUCAUUGUUAAACAUGGGGAGCCGGCACCUUAUUUAUGUAACAAAGAUCCGUUUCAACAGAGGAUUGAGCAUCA` gave a bound/input enrichment of 0.219 ratio.
The bound/input enrichment of `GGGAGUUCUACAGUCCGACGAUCGGAAGUACAAUGAUGGAGAUUGAUGGUGAUAAAGGCAAGCAGGGCGGGCCCACCUACUACAUAGACACUAAUGCUCUCCGCGUGCCCAGGGAGAACAUGGAGGCCAUCUCACCACUCAAGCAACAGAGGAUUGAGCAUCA` is reported as 0.597 ratio.
With `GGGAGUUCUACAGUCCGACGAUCUCUUAACUUAUUCAUUUAACUUAUUUUUAUAGCUAGAUAAAUAUUGUUAGUCUUAGACAAUAGCUCACAUUUUUUGAAAAGCAUGCUCUCCCUGUCCAUUUGUCUUAUAACAUGACCCAGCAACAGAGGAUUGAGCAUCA` the bound/input enrichment was 40.7 ratio.
`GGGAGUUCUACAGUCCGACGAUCACUCAGAGAUCCACCUCAAUUGAAGUGGGGAGUAAAGGUGUGGCCACCACACCUAACUUGAUGGAUAUUUUAUAAAGUUAAUAUGAAUCUUCCUGUUCGUCCAGGGAAGAAAGAUUUGUUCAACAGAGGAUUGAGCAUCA` gave a bound/input enrichment of 0.355 ratio.
With `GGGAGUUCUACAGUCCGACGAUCGUUGCCAGCUUCCGGUUCCGUUGGGCUCGGUUCUCUCCUGAGCUACGUGUCUCUACGUUUUAGGUGUGCCAUCCAACAAACAUGGAUCAGGUAAUGCAGUUUGUGGAUGAGCCAAGUCAGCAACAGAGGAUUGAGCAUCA` the bound/input enrichment was 0.093 ratio.
The bound/input enrichment of `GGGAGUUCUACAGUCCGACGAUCGAUGAUAAUCACACAAACAAGUCACUGUUACAUGACCAGCCUUGGGAUUCUUCUCCUGAUUAAUAUUCUCCCUGGAACCACUGGUCAAGGGGAAUCAAGACGACAAGAACCCGGGGACUUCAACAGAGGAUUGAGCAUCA` is reported as 0.126 ratio.
For `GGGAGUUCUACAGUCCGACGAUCUCAACAGACAACAUCAAAUACCAGCCUAAAGGGGGGCAGGUACAAAUUGUUACCAAGAAAAUAGACCUAAGCCAUGUGACAUCCAAAUGUGGCUCUCUAAAGAACAUCCGUCACAGGCCACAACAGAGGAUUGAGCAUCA`, the bound/input enrichment was 0.693 ratio.

Study 3
Target: Cellular tumor antigen p53, full length (TP53, Homo sapiens, UniProt P04637, residues 1-393)
Method: protein-binding microarray
Form: hairpin DNA
Sample: in vitro
Concentration: not given
Notes: whole hairpin DNA, median over replicate spots
Reference: not given
Reading: higher = stronger binding
With `CCACACGTGGTGACATGCCTTCCTAGGCATGTCACCACGTGTGGACACTC` the median fluorescence was 8370 a.u.
With `CCACACGTCGTGGCATGCCTTCCTAGGCATGCCACGACGTGTGGACACTC (5mC at 35)` the median fluorescence was 7820 a.u.
`CGGATATGCCCGGGCATGTCTCCTGACATGCCCGGGCATATCCGACACTC` has a median fluorescence of 15300 a.u.
`CGGAAATGCCCGGGCATGTCTCCTGACATGCCCGGGCATTTCCGACACTC` has a median fluorescence of 12800 a.u.
`CCAGACGTGGTGGCATGCCTTCCTAGGCATGCCACCACGTCTGGACACTC` gave a median fluorescence of 8740 a.u.
For `CCACACGTGGTGGCGTGCCTTCCTAGGCACGCCACCACGTGTGGACACTC`, the median fluorescence was 4820 a.u.
For `CCACACGTTGTGGCATGCCTTCCTAGGCATGCCACAACGTGTGGACACTC`, the median fluorescence was 7960 a.u.
With `CGGACATGCCCGCGCATGTCTCCTGACATGCGCGGGCATGTCCGACACTC (5mC at 13)` the median fluorescence was 13800 a.u.

Study 4
SMILES: COc1cc(-c2cn(C3CCc4ccccc4N(CC(F)(F)F)C3=O)nn2)ccc1-n1ccc(C)n1 (stereo not shown)
Read-out: cell-free assay
Method: competition with immobilised ligand
Concentration: 1 µM
Tyrosine-protein kinase ABL1, phosphorylated (ABL1, Homo sapiens, UniProt P00519, H396P) — remaining binding: 70%.
Serine/threonine-protein kinase WNK1 (WNK1, Homo sapiens, UniProt Q9H4A3) — remaining binding: 100%.
Tyrosine-protein kinase FRK (FRK, Homo sapiens, UniProt P42685) — remaining binding: 100%.
NT-3 growth factor receptor (NTRK3, Homo sapiens, UniProt Q16288) — remaining binding: 98%.
Mitogen-activated protein kinase 8 (MAPK8, Homo sapiens, UniProt P45983) — remaining binding: 55%.

For quick reference, copied from above (study 3):
For `CCACACGTTGTGGCATGCCTTCCTAGGCATGCCACAACGTGTGGACACTC`, the median fluorescence was 7960 a.u.
`CGGAAATGCCCGGGCATGTCTCCTGACATGCCCGGGCATTTCCGACACTC` has a median fluorescence of 12800 a.u.
